# Measured values collected from several papers.
# Each line is one published result; not all experiments were run side by side. Numbers after ± are the reported error.
# XIAP BIR3: E3 ubiquitin-protein ligase XIAP, BIR3 (XIAP, Homo sapiens, UniProt P98170)
# UniProt P98170, sequence (whole entry, unmodified, looked up): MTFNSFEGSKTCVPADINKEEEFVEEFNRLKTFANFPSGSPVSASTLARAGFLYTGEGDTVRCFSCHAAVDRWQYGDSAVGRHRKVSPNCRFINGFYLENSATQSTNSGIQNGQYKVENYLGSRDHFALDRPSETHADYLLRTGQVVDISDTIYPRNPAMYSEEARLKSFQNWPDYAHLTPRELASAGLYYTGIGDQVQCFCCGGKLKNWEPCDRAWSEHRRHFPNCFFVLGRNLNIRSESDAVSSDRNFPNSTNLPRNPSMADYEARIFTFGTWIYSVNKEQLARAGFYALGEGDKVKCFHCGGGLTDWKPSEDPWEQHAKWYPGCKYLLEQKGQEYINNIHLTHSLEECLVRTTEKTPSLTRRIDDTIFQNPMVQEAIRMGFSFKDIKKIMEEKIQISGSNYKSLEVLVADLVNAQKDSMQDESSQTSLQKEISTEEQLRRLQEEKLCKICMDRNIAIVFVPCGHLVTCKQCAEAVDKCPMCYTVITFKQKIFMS
# XIAP BIR1 domain: E3 ubiquitin-protein ligase XIAP, BIR1 domain (XIAP, Homo sapiens, UniProt P98170)
SMILES,target,assay,conditions,measurement,result
CC(C)[C@H](NC(=O)C(C)(C)N)C(=O)N1CCC[C@H]1C(=O)N[C@@H](Cc1ccccc1)C(N)=O,XIAP BIR3,ligand displacement,,IC50,> 1.6 µM
CN[C@@H](C)C(=O)N[C@H]1CN(C(=O)Cc2ccccc2)CC[C@H]2CC[C@@H](C(=O)NCc3ccc(C(N)=O)cc3)N2C1=O,XIAP BIR3,"ligand displacement, FP",,Ki,65.5 µM
CN[C@@H](C)C(=O)N[C@@H](CCCCN)C(=O)N1CCC[C@H]1C(=O)N[C@@H](Cc1ccccc1)C(=O)O,XIAP BIR3,"ligand displacement, FP",,Ki,0.086 µM
O=C(Nc1cccc(C(=O)Nc2ccc(S(=O)(=O)O)c3cccc(S(=O)(=O)O)c23)c1)Nc1cccc(C(=O)Nc2ccc(S(=O)(=O)O)c3cccc(S(=O)(=O)O)c23)c1,XIAP BIR1 domain,microscale thermophoresis,24 °C,Kd,11 ± 2 µM
N[C@H]1CCCCNC(=O)[C@H](Cc2ccccc2)NC(=O)[C@@H]2CCCN2C(=O)[C@@H](N)CCCCNC(=O)[C@H](Cc2ccccc2)NC(=O)[C@@H]2CCCN2C1=O,"E3 ubiquitin-protein ligase XIAP, BIR2 (XIAP, Homo sapiens, UniProt P98170)","ligand displacement, FP",,Ki,> 100 µM
CN[C@@H](C)C(=O)N[C@H]1CN(C(=O)Cc2ccccc2)CC[C@H]2CC[C@@H](C(=O)NCc3cccc(Br)c3)N2C1=O,XIAP BIR3,"ligand displacement, FP",,Ki,1.05 µM
CC(C)=CCCC1=C[C@H](c2c(O)cc3c(c2O)C(=O)C[C@@H](c2ccc(O)cc2O)O3)[C@@H](C(=O)c2ccc(O)cc2O)[C@H](c2ccc(O)cc2O)C1,"XIAP (Homo sapiens, UniProt P98170)","ligand displacement, FP",,Ki,34.3 µM
Cc1ccc(C(=O)Nc2ccc(S(=O)(=O)O)c3cccc(S(=O)(=O)O)c23)cc1NC(=O)c1cccc([N+](=O)[O-])c1,XIAP BIR1 domain,microscale thermophoresis,24 °C,Kd,525 ± 50 µM
CCN[C@@H](C)C(=O)N[C@H](C(=O)N1CCC[C@H]1C(=O)N[C@@H](Cc1ccccc1)C(N)=O)C(C)C,XIAP BIR3,ligand displacement,,IC50,4 µM
CN[C@@H](C)C(=O)N[C@H]1CN(C(=O)Cc2ccccc2)CC[C@H]2CC[C@@H](C(=O)NCc3ccc(-c4ccccc4)cc3)N2C1=O,XIAP BIR3,"ligand displacement, FP",,Ki,15.3 µM
CC(C)[C@@H](C(=O)N1CCC[C@H]1C(=O)N[C@@H](Cc1ccccc1)C(N)=O)N(C)C(=O)[C@H](C)N,XIAP BIR3,ligand displacement,,IC50,> 1.6 µM
O=C(Nc1cccc(C(=O)Nc2ccc(S(=O)(=O)O)c3cc(S(=O)(=O)O)cc(S(=O)(=O)O)c23)c1)Nc1cccc(C(=O)Nc2ccc(S(=O)(=O)O)c3cc(S(=O)(=O)O)cc(S(=O)(=O)O)c23)c1,"E3 ubiquitin-protein ligase XIAP, BIR1 domain (XIAP, Homo sapiens, UniProt P98170, R82S)",microscale thermophoresis,,Kd,1790 ± 425 µM
CN[C@@H](C)C(=O)N[C@H]1CN(C(=O)Cc2ccccc2)CC[C@H]2CC[C@@H](C(=O)NCc3ccccc3F)N2C1=O,XIAP BIR3,"ligand displacement, FP",,Ki,0.532 µM

# Excerpt of the above:
SMILES,target,assay,conditions,measurement,result
O=C(Nc1cccc(C(=O)Nc2ccc(S(=O)(=O)O)c3cccc(S(=O)(=O)O)c23)c1)Nc1cccc(C(=O)Nc2ccc(S(=O)(=O)O)c3cccc(S(=O)(=O)O)c23)c1,XIAP BIR1 domain,microscale thermophoresis,24 °C,Kd,11 ± 2 µM
N[C@H]1CCCCNC(=O)[C@H](Cc2ccccc2)NC(=O)[C@@H]2CCCN2C(=O)[C@@H](N)CCCCNC(=O)[C@H](Cc2ccccc2)NC(=O)[C@@H]2CCCN2C1=O,"E3 ubiquitin-protein ligase XIAP, BIR2 (XIAP, Homo sapiens, UniProt P98170)","ligand displacement, FP",,Ki,> 100 µM
